Published values pooled from the literature.
Lines come from different studies, so protocols differ. ± marks the error that the study gave. Non-standard residues stand in square brackets, D forms with d. No end group written: not given here. *: point of attachment.
PIM1: Serine/threonine-protein kinase pim-1 (PIM1, Homo sapiens, UniProt P11309)
Chain of UniProt P11309 (whole entry, looked up): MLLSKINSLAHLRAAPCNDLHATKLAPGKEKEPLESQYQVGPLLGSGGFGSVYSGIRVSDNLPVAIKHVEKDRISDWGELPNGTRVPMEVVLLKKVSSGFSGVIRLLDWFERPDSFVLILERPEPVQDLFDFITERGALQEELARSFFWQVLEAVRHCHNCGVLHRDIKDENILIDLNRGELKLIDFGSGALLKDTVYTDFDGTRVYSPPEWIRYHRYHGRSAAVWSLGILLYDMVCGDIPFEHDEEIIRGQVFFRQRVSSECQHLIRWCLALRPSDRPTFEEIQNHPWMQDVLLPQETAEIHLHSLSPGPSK
CTDNEP1: CTD nuclear envelope phosphatase 1 (CTDNEP1, Homo sapiens, UniProt O95476)
Chain of UniProt O95476 (whole entry, looked up): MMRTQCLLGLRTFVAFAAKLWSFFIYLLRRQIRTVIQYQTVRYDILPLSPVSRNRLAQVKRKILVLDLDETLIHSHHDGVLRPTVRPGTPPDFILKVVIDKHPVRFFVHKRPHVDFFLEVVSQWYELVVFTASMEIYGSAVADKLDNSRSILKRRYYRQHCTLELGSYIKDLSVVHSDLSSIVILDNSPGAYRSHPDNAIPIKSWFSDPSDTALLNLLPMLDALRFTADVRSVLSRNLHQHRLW
B1: UGT1A9 (Homo sapiens, UniProt O60656); chain GKLLVVPMDGSHWFTMRSVVEKLILRGHEVVVVMPEVSWQLGRSLNCTVKTYSTSYTLEDLDREFKAFAHAQWKAQVRSIYSLLMGSYNDIFDLFFSNCRSLFKDKKLVEYLKESSFDAVFLDPFDNCGLIVAKYFSLPSVVFARGILCHYLEEGAQCPAPLSYVPRILLGFSDAMTFKERVRNHIMHLEEHLLCHRFFKNALEIASEILQTPVTEYDLYSHTSIWLLRTDFVLDYPKPVMPNMIFIGGINCHQGKPLPMEFEAYINASGEHGIVVFSLGSMVSEIPEKKAMAIADALGKIPQTVLWRYTGTRPSNLANNTILVKWLPQNDLLGHPMTRAFITHAGSHGVYESICNGVPMVMMPLFGDQMDNAKRMETKGAGVTLNVLEMTSEDLENALKAVINDKSYKENIMRLSSLHKDRPVEPLDLAVFWVEFVMRHKGAPHLRPAAHDLTWYQYHSLDVIGFLLAVVLTVAFITFKCCAYGYRKCLGKKGRVKKAHKSKTH
Chain of UniProt P00968 (whole entry, looked up): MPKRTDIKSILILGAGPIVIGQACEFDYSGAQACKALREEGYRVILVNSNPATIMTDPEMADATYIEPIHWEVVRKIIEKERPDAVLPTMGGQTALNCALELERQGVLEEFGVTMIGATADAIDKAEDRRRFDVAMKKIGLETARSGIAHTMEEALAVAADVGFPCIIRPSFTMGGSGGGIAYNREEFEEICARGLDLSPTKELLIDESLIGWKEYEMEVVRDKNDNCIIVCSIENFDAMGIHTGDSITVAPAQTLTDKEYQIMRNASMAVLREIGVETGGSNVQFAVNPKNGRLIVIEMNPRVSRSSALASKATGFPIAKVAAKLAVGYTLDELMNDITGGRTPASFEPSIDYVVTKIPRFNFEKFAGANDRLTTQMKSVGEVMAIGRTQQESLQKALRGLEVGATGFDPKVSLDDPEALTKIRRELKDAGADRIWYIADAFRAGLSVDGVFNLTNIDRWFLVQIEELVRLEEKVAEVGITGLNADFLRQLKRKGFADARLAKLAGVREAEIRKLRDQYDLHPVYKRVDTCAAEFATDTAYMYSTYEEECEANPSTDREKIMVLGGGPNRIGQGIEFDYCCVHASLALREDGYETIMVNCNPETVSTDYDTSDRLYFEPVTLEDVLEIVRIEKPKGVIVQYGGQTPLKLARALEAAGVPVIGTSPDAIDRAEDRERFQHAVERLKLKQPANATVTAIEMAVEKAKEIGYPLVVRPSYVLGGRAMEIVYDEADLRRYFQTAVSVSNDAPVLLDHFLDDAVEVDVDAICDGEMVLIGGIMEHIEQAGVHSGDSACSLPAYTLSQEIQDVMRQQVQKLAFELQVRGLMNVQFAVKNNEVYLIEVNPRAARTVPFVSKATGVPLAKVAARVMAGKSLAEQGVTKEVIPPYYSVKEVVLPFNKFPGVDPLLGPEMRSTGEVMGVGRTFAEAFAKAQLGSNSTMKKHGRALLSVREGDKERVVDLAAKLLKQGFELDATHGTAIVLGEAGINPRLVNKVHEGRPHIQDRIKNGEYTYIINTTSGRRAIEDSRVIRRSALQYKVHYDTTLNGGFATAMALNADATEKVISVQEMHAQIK
Chain of UniProt P19111 (whole entry, looked up): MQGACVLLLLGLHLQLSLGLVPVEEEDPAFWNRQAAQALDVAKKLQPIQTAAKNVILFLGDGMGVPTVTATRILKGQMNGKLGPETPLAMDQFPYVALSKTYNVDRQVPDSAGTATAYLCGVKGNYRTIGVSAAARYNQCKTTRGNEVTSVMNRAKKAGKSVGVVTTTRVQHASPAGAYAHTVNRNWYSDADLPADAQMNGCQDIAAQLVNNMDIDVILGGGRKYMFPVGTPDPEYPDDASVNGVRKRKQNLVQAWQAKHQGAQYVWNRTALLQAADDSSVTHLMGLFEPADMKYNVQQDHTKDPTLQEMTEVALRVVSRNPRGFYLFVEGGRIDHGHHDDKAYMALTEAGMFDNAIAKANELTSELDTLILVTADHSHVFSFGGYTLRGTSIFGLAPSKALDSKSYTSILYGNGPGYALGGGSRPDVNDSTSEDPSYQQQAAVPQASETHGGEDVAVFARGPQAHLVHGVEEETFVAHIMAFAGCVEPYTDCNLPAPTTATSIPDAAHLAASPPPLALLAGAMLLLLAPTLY
Chain of UniProt O95497 (whole entry, unmodified, looked up): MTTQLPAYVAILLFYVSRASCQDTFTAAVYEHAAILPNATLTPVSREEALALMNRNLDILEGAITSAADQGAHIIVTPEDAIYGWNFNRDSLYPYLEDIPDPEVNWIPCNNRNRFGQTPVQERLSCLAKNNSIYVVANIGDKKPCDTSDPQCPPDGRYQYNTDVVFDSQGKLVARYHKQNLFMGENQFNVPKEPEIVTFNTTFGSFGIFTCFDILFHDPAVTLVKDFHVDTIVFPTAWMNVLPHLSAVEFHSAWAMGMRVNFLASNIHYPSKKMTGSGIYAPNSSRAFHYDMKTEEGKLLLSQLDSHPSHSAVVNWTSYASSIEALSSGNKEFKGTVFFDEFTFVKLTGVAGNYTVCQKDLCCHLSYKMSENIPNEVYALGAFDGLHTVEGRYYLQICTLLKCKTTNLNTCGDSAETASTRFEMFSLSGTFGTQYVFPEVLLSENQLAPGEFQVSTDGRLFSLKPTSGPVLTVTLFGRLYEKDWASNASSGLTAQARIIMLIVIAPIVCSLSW

| Molecule | target or system | assay | test system | setting | measurement | value |
| --- | --- | --- | --- | --- | --- | --- |
| AAEDWCKKGDT |  |  | peptide, human polyclonal IgM RF SOR | concentration not given, 5 µg/mL mAb II-481 coated, added: RF at 50% max binding concentration | inhibition | 0% |
| HSGTESQAKHCIPEKNHTLQ | PTPN22 (Homo sapiens, UniProt Q9Y2R2) | enzyme activity | peptide | 25 nM, pH 6.0, added: DiFMUP | Km | 4.1 ± 0.2 µM |
| C[C@@H]1O[C@@H](Oc2ccc([N+](=O)[O-])cc2)[C@@H](O)[C@H](O)[C@@H]1O | alpha-L-fucosidase (Paenibacillus sp. 3179) | substrate |  | pH 7.4, 50 °C, rough estimate, not saturated | Km | 1110 ± 750 µM |
| CC(C)(CO)[C@@H](O)C(=O)NCCC(=O)NCCS | Pantetheinase (VNN1, Homo sapiens, UniProt O95497) | hydrolysis, substrate, item: pantothenic acid |  | 15 min, 37 °C | Km | 74.1 ± 41.5 µM |
| C/C1=C2/N[C@H]([C@H](CC(N)=O)[C@@]2(C)CCC(=O)NC[C@@H](C)OP(=O)(O)O[C@H]2[C@@H](O)[C@@H](n3cnc4cc(C)c(C)cc43)O[C@@H]2CO)[C@]2(C)N=C(/C(C)=C3N=C(/C=C4N=C1[C@@H](CCC(N)=O)C\4(C)C)[C@@H](CCC(N)=O)[C@]\3(C)CC(N)=O)[C@@H](CCC(N)=O)[C@]2(C)CC(N)=O.[Co] | cobA (Limosilactobacillus reuteri, UniProt Q50EJ2) | enzyme activity, substrate |  | anoxic, Ti(III) citrate reduced, added: ATP | Km | 0.13 ± 0.01 µM |
| CCCCCCCCCC(=O)O | Marasmius rotula unspecific peroxygenase | substrate, GC-MS |  | added: H2O2 | Km | 703 ± 549 µM |
| CC(=O)N[C@H]1[C@@H](OP(=O)(O)OP(=O)(O)OC[C@H]2O[C@@H](n3ccc(=O)[nH]c3=O)[C@H](O)[C@@H]2O)O[C@H](CO)[C@@H](O)[C@@H]1O | heparosan synthase PmHS-G, Pasteurella multocida | GlcNAc-transferase activity, substrate |  | pH 7.2, 30 °C, added: UDP-[3H]GlcA 1 mM, 12.5-kDa heparosan acceptor | Km | ~110 µM |
| B1 (UGT1A9) | O=C1[C@H](CC[C@H](O)c2ccc(F)cc2)[C@@H](c2ccc(O)cc2)N1c1ccc(F)cc1 | steady-state kinetics |  | pH 7.4, 37 °C | Vmax/Km | 0.3 µL/min/mg |
| RYRHPTRMYY | PIM1 | substrate, coupled enzyme | peptide | pH 7.4, room temperature, added: 1 mM ATP, 20 mM MgCl2 | Km | 24 ± 2 µM |
| PIL[pS]EGASR (phospho-Ser4; pS = N[C@@H](COP(=O)(O)O)C(=O)O) | CTDNEP1 | substrate, MESG-coupled phosphate release |  | 25 °C | Km | 260 ± 50 µM |
| CC(=O)OC[C@H](N)C(=O)O | Trichomonas vaginalis cysteine synthase 1 | substrate |  | pH 7.8, 37 °C, added: 3 mM sodium sulphide | Km | 39500 ± 2900 µM |
| COc1ccc(CO)cc1OC | lignin peroxidase | substrate |  | pH 2.5, added: H2O2 0.4 mM | Km | 2000 µM |
| [Na+].[Na+].[Na+].[O]=[V]([O-])([O-])[O-] | ALPI (Bos taurus, UniProt P19111) |  |  | 0.084 µM, added: DiFMUP substrate | Km | 0.17 ± 0.02 µM |
| LIYWAST |  |  | peptide, human polyclonal IgM RF WEAK | concentration not given, 5 µg/mL mAb II-481 coated, added: RF at 50% max binding concentration | inhibition | 5% |
| N=C(N)NCCC[C@H](N)C(=O)Nc1ccc2ccccc2c1 | cathepsin H (Bubalus bubalis lung) | substrate, 2-naphthylamine release |  | pH 6.5, 37 °C | Km | 322 µM |
| Ac-RYRHPTGMYY-NH2 (N-acetyl, C-amide) | PIM1 | substrate, coupled enzyme | peptide | pH 7.4, room temperature, added: 1 mM ATP, 20 mM MgCl2 | Km | 16 ± 2 µM |
| Nc1ncnc2c1ncn2[C@@H]1O[C@H](COP(=O)(O)OP(=O)(O)O)[C@@H](O)[C@H]1O | carB, nucleotide binding sites (Escherichia coli, UniProt P00968) | ATP synthesis, substrate, coupled enzyme |  | pH 7.6, added: 1.0 mM carbamoyl phosphate, 10 mM ornithine | Km | 130 ± 30 µM |
| AYRHPTGMYY | PIM1 | substrate, coupled enzyme | peptide | pH 7.4, room temperature, added: 1 mM ATP, 20 mM MgCl2 | Km | > 800 µM |
| Cbz-Gly-Pro-pNA (N-Cbz, C-pNA; Cbz = O=C(OCc1ccccc1)*; pNA = O=[N+]([O-])c1ccc(N*)cc1) | Aeromonas punctata prolyl endopeptidase | substrate |  | pH 8, 34 °C | Km | 810 µM |
| SGSRP[pS]TP (phospho-Ser; pS = N[C@@H](COP(=O)(O)O)C(=O)O) | CTDNEP1 | substrate, MESG-coupled phosphate release |  | 25 °C | Km | 32 ± 6 µM |

For quick reference, copied from above:
| Molecule | target or system | assay | test system | setting | measurement | value |
| --- | --- | --- | --- | --- | --- | --- |
| B1 (UGT1A9) | O=C1[C@H](CC[C@H](O)c2ccc(F)cc2)[C@@H](c2ccc(O)cc2)N1c1ccc(F)cc1 | steady-state kinetics |  | pH 7.4, 37 °C | Vmax/Km | 0.3 µL/min/mg |
| AAEDWCKKGDT |  |  | peptide, human polyclonal IgM RF SOR | concentration not given, 5 µg/mL mAb II-481 coated, added: RF at 50% max binding concentration | inhibition | 0% |
| CCCCCCCCCC(=O)O | Marasmius rotula unspecific peroxygenase | substrate, GC-MS |  | added: H2O2 | Km | 703 ± 549 µM |
